Measured values collected from several papers.
Lines come from different studies, so protocols differ. ± marks the error that the study gave.
Chain of UniProt Q13554 (whole entry, looked up): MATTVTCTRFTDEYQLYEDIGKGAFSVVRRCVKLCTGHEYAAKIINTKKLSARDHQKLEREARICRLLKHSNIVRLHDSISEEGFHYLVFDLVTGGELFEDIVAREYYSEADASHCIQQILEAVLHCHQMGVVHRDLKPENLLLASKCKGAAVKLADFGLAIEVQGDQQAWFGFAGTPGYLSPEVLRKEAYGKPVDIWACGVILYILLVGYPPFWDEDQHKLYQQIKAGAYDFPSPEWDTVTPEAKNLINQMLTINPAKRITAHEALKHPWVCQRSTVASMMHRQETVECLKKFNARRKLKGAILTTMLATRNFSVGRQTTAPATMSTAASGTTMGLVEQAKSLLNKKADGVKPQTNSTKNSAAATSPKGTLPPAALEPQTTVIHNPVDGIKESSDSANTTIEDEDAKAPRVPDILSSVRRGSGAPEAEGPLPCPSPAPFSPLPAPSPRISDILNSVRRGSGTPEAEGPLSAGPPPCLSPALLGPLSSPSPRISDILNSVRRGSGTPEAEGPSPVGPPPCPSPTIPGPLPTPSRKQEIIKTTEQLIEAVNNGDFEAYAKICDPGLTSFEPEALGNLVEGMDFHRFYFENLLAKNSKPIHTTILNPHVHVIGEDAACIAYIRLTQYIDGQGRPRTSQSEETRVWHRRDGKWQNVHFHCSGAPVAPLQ

C=CC(=O)N1[C@H](c2ccc3c(c2)OCO3)c2[nH]c3ccccc3c2C[C@@H]1C(=O)N1CCN(C)CC1 has a relative co-enrichment of 121% (human cyclin E1 N112C-3xFLAG:CDK2; co-IP with TMT proteomics, refers to: THRAP3; concentration not given, Q9Y2W1; baseline: wild type DMSO).
Cn1c(=O)[nH]c(=O)c2c1nc(CN1CCN(c3cccc(Cl)c3)CC1)n2Cc1cccc(Cl)c1: “IP1 accumulation increase” > 20% (PLC-gamma1 rat; HEK293-A overexpressing PLC-gamma1; 50 µM, 2 h).
For CN1CCCNC(=O)c2cccc(c2)C(=O)NCCCN(C)CCCNc2cccc3c2C(=O)c2cccc(c2C3=O)NCCC1, “log2 fold change” read 0.398 (SAS; RNA-Seq, refers to: SSU72 mRNA; 1 µM, 6 h; baseline: untreated cells).
With Fc1ccc(Nc2nc(NC3CCCCC3)c3cc(Br)ccc3n2)cc1F the maximal inhibition was 0.8% (β2AR/β1AR ICL1 chimera; β-arrestin2 recruitment, antagonist, BRET; baseline: isoprenaline maximal response).
The ΔTm of Cc1cn(CC(=O)N(CCNC(=O)CN(CCNC(=O)CN(CCNC(=O)CN(CCNC(=O)CN(CCNC(=O)CN(CCNC(=O)CN(CCNC(=O)CN(CCN)C(=O)Cn2cnc3c(=O)[nH]c(N)nc32)C(=O)Cn2cnc3c(N)ncnc32)C(=O)Cn2cc(C)c(=O)[nH]c2=O)C(=O)Cn2cnc3c(=O)[nH]c(N)nc32)C(=O)Cn2cc(C)c(=O)[nH]c2=O)C(=O)Cn2cnc3c(=O)[nH]c(N)nc32)C(=O)Cn2cnc3c(N)ncnc32)CC(=O)NCCN(CC(=O)NCCOCCOCC(N)=O)C(=O)Cn2cnc3c(N)ncnc32)c(=O)[nH]c1=O is reported as -13.8 °C (mismatched DNA TT; duplex formation, UV melting; baseline: complementary DNA).
The IC50 of O=C(NCc1ccc2c(c1)CN(C(=O)c1cc(-c3ccccc3)no1)C2)C1C=CC=CC=C1 is reported as 443 ± 220 nM (FSP1, ancestral; resazurin reduction, inhibitor; pH 7.2, added: NADH, resazurin).
Under “percent of control”, C=CC(=O)Nc1cccc(Cn2ncc3cnc(Nc4cnn(CCOC)c4)nc32)c1 is recorded as 100% (LTK human; binding, KINOMEscan; 100 nM; lower = stronger binding).
C[n+]1ccc(/C=N/NC(=O)c2cccc(C(=O)N/N=C/c3cc[n+](C)c4ccccc34)n2)c2ccccc21 has a delta Tm of 30.4 °C (telomeric antiparallel G-quadruplex DNA; UV melting; 6 µM, 10 mM potassium, added: DNA 3 µM).
With Cc1nn(-c2cccc(N)c2)c(=O)c2cnc(Nc3ccc(N4CCNCC4)cc3)nc12 the IC50 was > 10000 nM (CAMK2B (Homo sapiens, UniProt Q13554); SelectScreen kinase).
Under “log2 fold change”, Cc1ncsc1-c1ccc(C(C)NC(=O)C2CC(O)CN2C(=O)C(NC(=O)CCCCCCCCCCN2CCCC(Nc3ncc(Cl)c(Nc4ccccc4S(=O)(=O)C(C)C)n3)C2)C(C)(C)C)cc1 (stereo not drawn) is recorded as -1.35 (22Rv1; RNA-seq, refers to: ZNF16 mRNA; concentration not given; baseline: DMSO).
Nc1ncc(-c2cc(-c3cnn(CC(F)(F)F)c3)ncc2F)nc1C(=O)NC1CNCC(F)C1 (stereo not drawn) has a remaining binding of 84% (FLT3; KINOMEscan; 1 µM; baseline: DMSO control).
COC1CN([C@H]2CC[C@H]([C@@]3(C)Oc4c(Cl)cc(C(=O)NCc5c(SC)cc(C)[nH]c5=O)c(C)c4O3)CC2)C1 — result for “log2 fold change”: 0.665 (RNA-seq, refers to: PDCD1LG2 mouse homolog; mouse, HT-1376 xenograft, whole blood; dose not given; baseline: vehicle).
With NCCOc1cc(NC(=O)c2cc(OCc3cn(Cc4ccc(C(=O)O)cc4)nn3)cc(C(=O)Nc3cc(OCCN)c4ccccc4n3)n2)nc2ccccc12 the ΔTm was 6.3 ± 0.4 K (human telomeric G-quadruplex DNA; FRET melting; 1 µM, pH 7.4, added: 60 mM potassium).
c1ccc(-c2n[nH]cc2-c2ccnc3ccccc23)nc1 — result for “log2 fold change”: -0.13 (orf19.6492 Candida albicans; kinase binding, MIB/MS competition; Candida albicans lysate; 10 µM; baseline: DMSO).
CNS(=O)(=O)Nc1nccc(Cc2c(C)c3ccc(Oc4ncccc4F)cc3oc2=O)c1F gave an IC50 of > 1000 nM (MFE-296; cell viability; 7 days).

Repeated from above:
For CN1CCCNC(=O)c2cccc(c2)C(=O)NCCCN(C)CCCNc2cccc3c2C(=O)c2cccc(c2C3=O)NCCC1, “log2 fold change” read 0.398 (SAS; RNA-Seq, refers to: SSU72 mRNA; 1 µM, 6 h; baseline: untreated cells).
With Fc1ccc(Nc2nc(NC3CCCCC3)c3cc(Br)ccc3n2)cc1F the maximal inhibition was 0.8% (β2AR/β1AR ICL1 chimera; β-arrestin2 recruitment, antagonist, BRET; baseline: isoprenaline maximal response).
